Published values from different studies.
Several values in a cell are separate wells, animals, samples, runs or records. ± gives the spread as reported.
Chain of UniProt Q9NWZ3 (whole entry, looked up): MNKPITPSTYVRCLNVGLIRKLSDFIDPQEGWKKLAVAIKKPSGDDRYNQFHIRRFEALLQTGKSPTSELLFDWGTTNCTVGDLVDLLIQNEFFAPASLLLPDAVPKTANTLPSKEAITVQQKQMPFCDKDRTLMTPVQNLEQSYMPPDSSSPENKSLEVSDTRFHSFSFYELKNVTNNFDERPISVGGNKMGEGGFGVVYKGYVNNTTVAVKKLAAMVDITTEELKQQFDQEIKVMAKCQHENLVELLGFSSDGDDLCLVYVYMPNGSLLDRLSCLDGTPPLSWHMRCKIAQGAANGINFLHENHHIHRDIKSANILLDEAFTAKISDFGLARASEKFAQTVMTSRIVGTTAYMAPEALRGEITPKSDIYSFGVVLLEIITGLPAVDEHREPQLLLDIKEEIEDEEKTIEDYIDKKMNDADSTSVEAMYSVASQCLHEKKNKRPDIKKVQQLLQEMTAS

For `CC(C)[C@@H]1NC(=O)CNC(=O)[C@H](CC(N)=O)NC(=O)[C@H](CCCNC(=N)N)NC(=O)[C@H](Cc2ccc(O)cc2)NC(=O)[C@H](C(C)C)NC(=O)[C@@H](NC(=O)[C@@H](NC(=O)[C@H](CC(N)=O)NC(=O)[C@H](Cc2c[nH]c3ccccc23)NC(=O)[C@H](C)NC(=O)[C@H](Cc2ccccc2)NC(=O)CNC(=O)[C@H](CCCCN)NC(=O)[C@H](Cc2ccccc2)NC(=O)[C@H](Cc2ccccc2)NC(=O)[C@H](CCCCN)NC(=O)OCC2c3ccccc3-c3ccccc32)C(C)C)CSSC[C@@H](C(=O)N[C@@H](Cc2c[nH]cn2)C(=O)N[C@@H](CCCNC(=N)N)C(=O)N[C@@H](CCCNC(=N)N)C(=O)N[C@@H](C)C(=O)N[C@@H](CC(N)=O)C(N)=O)NC(=O)[C@H](C(C)C)NC(=O)[C@H](CCCNC(=N)N)NC1=O`, the creatinine was 82.7 ± 3.65 µmol/L (ICR mouse, blood; intramammary, 10 mg/kg, day 5, 3 d dosing).
For `CC(C)[C@H]1NC(=O)C[C@H]2/C=C/CCSSC[C@@H](NC1=O)C(=O)N[C@H](Cc1cccc3ccccc13)C(=O)NCC(=O)O2`, the inhibition was 1.6% (ALK tyrosine kinase receptor, EML4-ALK fusion (ALK, Homo sapiens, UniProt Q9UM73); 10 µM).
`CN1Cc2cc(Cl)ccc2-n2c(nnc2C2CCN(c3cccc([18F])n3)CC2)C1` has a tissue uptake of 11.6 ± 4.48 %ID/g (C57BL/6 mouse male, heart; intravenous, 3.7 MBq, 1 min).
For `CSCC[C@H](N)C(=O)N[C@@H](C)C(=O)N[C@@H](Cc1c[nH]c2ccccc12)C(=O)N[C@@H](Cc1c[nH]cn1)C(=O)N[C@@H](CC(=O)O)C(=O)N[C@@H](CC(=O)O)C(=O)N[C@@H](CCC(=O)O)C(=O)N[C@@H](CCC(=O)O)C(=O)N[C@@H](Cc1ccccc1)C(=O)N[C@@H](C)C(=O)N[C@@H](CCCNC(=N)N)C(=O)N[C@@H](CCCNC(=N)N)C(=O)N[C@@H](CCCNC(=N)N)C(=O)N[C@@H](CCCNC(=N)N)C(=O)NCCCCCC(=O)NCCCCC(NC(=O)CCCCCNC(=O)[C@H](CCCNC(=N)N)NC(=O)[C@H](CCCNC(=N)N)NC(=O)[C@H](CCCNC(=N)N)NC(=O)[C@H](CCCNC(=N)N)NC(=O)[C@H](C)NC(=O)[C@H](Cc1ccccc1)NC(=O)[C@H](CCC(=O)O)NC(=O)[C@H](CCC(=O)O)NC(=O)[C@H](CC(=O)O)NC(=O)[C@H](CC(=O)O)NC(=O)[C@H](Cc1c[nH]cn1)NC(=O)[C@H](Cc1c[nH]c2ccccc12)NC(=O)[C@H](C)NC(=O)[C@@H](N)CCSC)C(=O)NCCCCC(NC(=O)C(CCCCNC(=O)CCCCCNC(=O)[C@H](CCCNC(=N)N)NC(=O)[C@H](CCCNC(=N)N)NC(=O)[C@H](CCCNC(=N)N)NC(=O)[C@H](CCCNC(=N)N)NC(=O)[C@H](C)NC(=O)[C@H](Cc1ccccc1)NC(=O)[C@H](CCC(=O)O)NC(=O)[C@H](CCC(=O)O)NC(=O)[C@H](CC(=O)O)NC(=O)[C@H](CC(=O)O)NC(=O)[C@H](Cc1c[nH]cn1)NC(=O)[C@H](Cc1c[nH]c2ccccc12)NC(=O)[C@H](C)NC(=O)[C@@H](N)CCSC)NC(=O)CCCCCNC(=O)[C@H](CCCNC(=N)N)NC(=O)[C@H](CCCNC(=N)N)NC(=O)[C@H](CCCNC(=N)N)NC(=O)[C@H](CCCNC(=N)N)NC(=O)[C@H](C)NC(=O)[C@H](Cc1ccccc1)NC(=O)[C@H](CCC(=O)O)NC(=O)[C@H](CCC(=O)O)NC(=O)[C@H](CC(=O)O)NC(=O)[C@H](CC(=O)O)NC(=O)[C@H](Cc1c[nH]cn1)NC(=O)[C@H](Cc1c[nH]c2ccccc12)NC(=O)[C@H](C)NC(=O)[C@@H](N)CCSC)C(N)=O` (some centres unmarked), the tissue distribution was 10.8% and 5.93% and 5.6% (C57BL/6 mouse female, liver; dose not given, 6 h; reference: total).
With `C(#Cc1cncc(OC[C@@H]2CCN2)c1)c1ccccc1` the concentration was 360 ng/mL (male Sprague-Dawley rat, plasma; oral, 75 mg/kg, 3 h).
`CC(C)(CCCC/C=C/CCCCCC(C)(C)C(=O)O)C(=O)O` gave a plasma concentration of 37000 ng/mL (beagle dog, both sexes; oral, dose not given, 0.25 h).
`C=CCN1CCC23c4c5ccc(OC(=O)c6ccccc6)c4OC2C(=O)CCC3(O)C1C5` (centres unmarked) has a remaining compound of 95.4% and 95.8% and 109% (rat plasma; 0 h, no inhibitor).
`COc1ccccc1-c1n[nH]c2nc(N[C@H]3CC[C@H](NS(=O)(=O)CC(C)C)CC3)ncc12` has a relative abundance of 0.94 (bead binding, competition bead pull-down, refers to: LINJ.36.6760; Leishmania donovani extract; 10 µM; reference: vehicle).
For `C#Cc1c(F)ccc2cc(O)cc(-c3ncc4c(N5CC6CCC(C5)N6C(=O)OC(C)OC(=O)COCCOC)nc(OC[C@@]56CCCN5C[C@H](F)C6)nc4c3F)c12` (some centres unmarked), the t1/2 was 0.59 min (refers to: prodrug; mouse whole blood; 1 µM).
`CS(C)(=O)=Nc1ccc(-c2ccc(-c3nc4cc(O[C@@H]5CO[C@H]6[C@@H]5OC[C@H]6O)[nH]c4cc3F)cc2)cc1` has an inhibition of 6% (thyroid hormone receptor; binding; 10 µM).
For `N=C(N)NCCC[C@H](NC(=O)[C@H](CCCNC(=N)N)NC(=O)[C@H](CCCNC(=N)N)NC(=O)[C@H](CCC(N)=O)NC(=O)[C@H](CCCNC(=N)N)NC(=O)[C@H](CCCNC(=N)N)NC(=O)[C@H](CCCCN)NC(=O)[C@H](CCCCN)NC(=O)[C@H](CCCNC(=N)N)NC(=O)CNC(=O)[C@H](Cc1ccc(O)cc1)NC(=O)[C@H](Cc1ccccc1)NC(=O)[C@H](Cc1ccccc1)NC(=O)[C@H](Cc1ccccc1)NC(=O)Cc1ccc2ccccc2c1)C(=O)O`, the health score was 5 (C57BL/6 mice; intraperitoneal, 10 mg/kg, 48 h; direction not given).
The inhibition of `CN(C)[C@H]1C[C@@]23CC[C@@]4(O2)C(=CC[C@]2(C)[C@@H](c5ccc6ccncc6c5)CC[C@H]24)C=C3[C@@H](O)[C@@H]1O` is reported as 10.1% (Interleukin-1 receptor-associated kinase 4 (IRAK4, Homo sapiens, UniProt Q9NWZ3); ATP probe labelling, inhibitor, KiNativ profiling; 0.1 µM).
`CCCCC[C@H]1C(=O)N(C)[C@H](C)C(=O)N(C)[C@@H](CCCCC)C(=O)N(C)[C@H](C)C(=O)N(C)[C@@H](CCCCC)C(=O)N(C)[C@H](C)C(=O)N(C)[C@@H](CCCCC)C(=O)N(C)[C@H](C)C(=O)N1C` has a log Papp of -5.55 ± 0.06 (PAMPA, HPLC-UV; 500 µM, pH 7.4).
`CCCCCCCCCCCCCC(=O)N[C@@H](Cc1ccccc1)C(=O)N[C@H](C(=O)N[C@@H](CCC(=O)O)C(=O)N[C@H](C(=O)N1CCC[C@H]1C(=O)N[C@H](C(=O)N[C@H](C(=O)O)[C@@H](C)CC)[C@@H](C)O)[C@@H](C)CC)[C@@H](C)O`: ocular tolerability “not toxic” (slit lamp, fundoscopy, McDonald-Shadduck scoring; Chlorocebus sabaeus; topical ocular, dose not given, 21 days).
For `C[C@H](O)[C@@H](NC(=O)[C@H]1CCCN1C(=O)[C@@H](CCCCN)NC(=O)[C@@H](CO)NC(=O)[C@@H](Cc1ccc(O)cc1)NC(=O)[C@@H](CC(N)=O)NC(=O)CCOCCOCCOCCNC(=O)CN1CCN(CC(=O)O)CCN(CC(=O)O)CCN(CC(=O)O)CC1)C(=O)N[C@H](CC(=O)O)C(=O)N[C@H](CCCNC(=N)N)C(=O)N[C@H](CCC(N)=O)C(=O)N[C@H](Cc1ccc(O)cc1)C(=O)N[C@H](Cc1c[nH]cn1)C(=O)N[C@H](Cc1ccccc1)C(N)=O` [copper-64 labelled], the tissue uptake was 0.36 ± 0.08 %ID/g (C57BL/6J mice, bone; intravenous, 1.85 MBq, 0.6667 h, radiolabelled).
`C=Cc1c(C)c2cc3nc(c(CC(=O)[O-])c4[n-]c(cc5nc(cc1[n-]2)C(C)=C5CC)c(C)c4C(=O)[O-])C(CCC(=O)[O-])C3C.[Cu+2].[Na+].[Na+].[Na+]` (centres unmarked) gave a serum ALT of 36.8 ± 7.57 U/L (Wistar rat, female; oral, 1000 mg/kg daily, 28 days).
With `CCCC[C@H]1C(=O)N(C)[C@@H](CCCC)C(=O)N[C@@H](CCCNC(=O)CN2CCN(CC(=O)O)CCN(CC(=O)O)CCN(CC(=O)O)CC2)C(=O)N[C@H](C(=O)NCC(N)=O)CSCC(=O)N[C@@H](Cc2ccc(O)cc2)C(=O)N(C)[C@@H](C)C(=O)N[C@@H](CC(N)=O)C(=O)N2CCC[C@H]2C(=O)N[C@@H](Cc2c[nH]cn2)C(=O)N[C@@H](CC(C)C)C(=O)N(C)CC(=O)N[C@@H](Cc2c[nH]c3ccccc23)C(=O)N[C@@H](CO)C(=O)N[C@@H](Cc2c[nH]c3ccccc23)C(=O)N1C` [gallium-68 labelled] the tissue uptake was 2.15 ± 0.1 %ID/g (NOD/SCID mice with CHO-hPD-L1 xenograft, intestine; 30 min post injection).
With `CCc1nn(C)c2nc(-c3ccc(C(=O)O)cc3)nc(NCc3ccccc3)c12` the concentration was 159 ng/mL (male CD-1 mouse, plasma; intravenous, 1 mg/kg, 2 h).
The logD of `CCCCc1cn([C@H]2[C@H]([C@H](O)[C@H](O)CO)OC(C(=O)OC)=C[C@@H]2O)nn1` is reported as 0.6 (shake flask; aqueous buffer; 2 h, pH 7.4).
With `COc1ccccc1-c1n[nH]c2nc(NC3CCN(C(=O)Cc4ccc(F)cc4F)CC3)ncc12` the relative abundance was 0.94 (bead binding, competition bead pull-down, refers to: LINJ.25.2450; Leishmania donovani extract; 10 µM; reference: vehicle).
`O=C1NC2(CC2)COc2ncc(F)cc2[C@H]2COCCN2c2ccn3ncc1c3n2` has a potassium of 4.62 ± 0.47 mmol/L (Sprague-Dawley rat, male, serum; oral, 5 mg/kg/day, 4 weeks daily, end of recovery period).
`CC[C@H](C)[C@H](NC(=O)[C@H](CCCCN)NC(=O)CNC(=O)[C@H](CC(C)C)NC(=O)[C@H](Cc1ccccc1)NC(=O)[C@H](CCCCN)NC(=O)[C@H](CO)NC(=O)[C@H](Cc1ccccc1)NC(=O)[C@H](Cc1c[nH]c2ccccc12)NC(=O)[C@H](CCC(N)=O)NC(=O)[C@@H](NC(=O)[C@H](Cc1ccccc1)NC(=O)CCCCCNC(=O)CN1CCN(CC(=O)O)CCN(CC(=O)O)CCN(CC(=O)O)CC1)C(C)C)C(=O)N[C@@H](CCC(=O)O)C(=O)N1CCC[C@H]1C(=O)N[C@@H](CC(=O)O)C(=O)N[C@H](C(=O)N[C@@H](CO)C(=O)N[C@@H](CCC(N)=O)C(=O)N[C@H](C(=O)N[C@@H](CCC(N)=O)C(=O)N[C@@H](CC(=O)O)C(=O)N1CCC[C@H]1C(=O)N[C@@H](CC(N)=O)C(=O)N[C@@H](CC(=O)O)C(=O)N[C@@H](CCC(N)=O)C(=O)N[C@@H](Cc1ccc(O)cc1)C(=O)N[C@@H](CCC(=O)O)C(=O)N1CCC[C@H]1C(=O)N[C@@H](Cc1ccccc1)C(=O)O)C(C)C)C(C)C` [copper-64 labelled] gave an SUVmean of 4.51 SUV (dynamic PET; mouse, CT26 tumour, checkpoint inhibitor-treated, tumour; intravenous, 100 µCi/mouse, 1860 s).
The oral bioavailability of `CCOc1ccccc1-n1c(CN2CCNCC2)nc2ccccc2c1=O` is reported as 27.6% (C57BL/6 mouse, male, plasma; oral, 6 mg/kg).
